Experimental data of several laboratories.
Protocols differ between the studies behind these lines.

SMILES	test system	conditions	clearance
O=C(OCc1cccc(O)c1O)c1ccc(O)c(CO)c1	male CD-1 mouse, plasma	intravenous, 10 mg/kg, single dose	94.7 mL/min/kg
COC1C=COC2(C)Oc3c(C)c(O)c4c(c3C2=O)C2=NC3(CCN(CC(C)C)CC3)NC2=C(NC(=O)C(C)=CC=CC(C)C(O)C(C)C(O)C(C)C(OC(=O)c2cccnc2)C1C)C4=O (centres unmarked)	female CD-1 mouse, plasma	intravenous, 5 mg/kg	2.98 mL/min/kg
C[C@H]1CN(C(=O)c2cn(-c3ccnc(N)n3)c3cc(C#CC4(O)CCCCC4)ccc23)CCN1	CD-1 mouse, plasma	intravenous, 1 mg/kg	62.7 mL/min/kg
Nc1ccn(C[C@@H](CO)OCP(=O)(O)OCCCS(=O)(=O)CCCCCCCCCCCCCC2CCC2)c(=O)n1	mouse, plasma	intravenous, 3 mg/kg, single dose	64 mL/min/kg
C[N+]1(CC(=O)OC2CCCCCCCCCCC2)CCCCC1	mouse, plasma	intraperitoneal, 2.5 mg/kg, single dose	0.14 L/h
NS(=O)(=O)NCC(F)(F)c1ccccc1F	mouse, plasma	intravenous, 5 mg/kg	6.43 mL/min/kg
COc1cccc2c1C(=O)c1c(O)c3c(c(O)c1C2=O)C[C@@](O)(C(=O)CO)C[C@@H]3O[C@H]1C[C@H](N)[C@@H](O)[C@H](C)O1	male Kunming mouse, plasma	intravenous, 5 mg/kg	6.92 mL/min/kg
COC(=O)c1ccc2c(c1)NC(=O)/C2=C(\Nc1ccc2c(c1)CCN2C(=O)CN1CCOCC1)c1ccccc1	CD-1 mouse, blood	intravenous, 10 mg/kg	29.7 mL/min/kg
Nc1nc2cc(CC[C@H]3C[C@@H](n4ccc5c(N)ncnc54)[C@H](O)[C@@H]3O)ccc2cc1Br	C57BL/6 mouse, plasma	intravenous, 2.5 mg/kg, single dose	6.6 mL/min/kg
C=C(C)C(=O)Nc1ccc(-c2c(-c3ccc(Oc4nccc(C)n4)cc3)c3c(N)ncnc3n2C)cc1	nude mouse, plasma	intravenous	3.4 mL/min/kg
COC1C=COC2(C)Oc3c(C)c(O)c4c(c3C2=O)C2=NC3(CCN(CC(C)C)CC3)NC2=C(NC(=O)C(C)=CC=CC(C)C(O)C(C)C(O)C(C)C(OC(=O)Nc2cccnn2)C1C)C4=O (centres unmarked)	female CD-1 mouse, plasma	intravenous, 5 mg/kg	2.27 mL/min/kg
FC(F)(F)c1cc(Nc2nc(-c3ccccc3)cc(C3CCNCC3)n2)ccn1	male CD-1 mouse, plasma	intravenous, 3 mg/kg	43 mL/min/kg
COc1ccccc1NC(=O)OC1C(C)C(OC)C=COC2(C)Oc3c(C)c(O)c4c(c3C2=O)C2=NC3(CCN(CC(C)C)CC3)NC2=C(NC(=O)C(C)=CC=CC(C)C(O)C(C)C(O)C1C)C4=O (centres unmarked)	female CD-1 mouse, plasma	intravenous, 5 mg/kg	3.67 mL/min/kg
Nc1ccn(C[C@@H](CO)OCP(=O)(O)OCCCS(=O)(=O)CCCCCCCCCCCCC2CCC2)c(=O)n1	mouse, plasma	intravenous, 3 mg/kg, single dose	104 mL/min/kg

Some of these lines once more:
SMILES	test system	conditions	clearance
C=C(C)C(=O)Nc1ccc(-c2c(-c3ccc(Oc4nccc(C)n4)cc3)c3c(N)ncnc3n2C)cc1	nude mouse, plasma	intravenous	3.4 mL/min/kg
